Measurements from different studies.
Compare with care: the assays were run in different laboratories. Several values in a cell are separate wells, animals, samples, runs or records. ± marks the error that the study gave.

Structure (SMILES)	test system	setting	AUC(0-inf)
C=C(c1ncc(C(=O)O)cn1)c1cc2c(cc1C)C(C)(C)CCC2(C)C	rat, Sprague-Dawley, male, plasma	oral, 100 mg/kg, sesame oil vehicle	84000 ng·h/mL
CC1(C)C2CCC1(C)C(OC(=O)/C=C/c1ccc(O)c(O)c1)C2 (stereo not shown)	Sprague-Dawley rat, plasma	oral gavage, 30 mg/kg	1490 ± 66.4 ng·h/mL
C#Cc1cccc(Nc2ncnc3cc(OC)c(OCCCN4CCOCC4)cc23)c1	Sprague-Dawley rat, plasma	intravenous, 10 mg/kg	6150 ± 908 ng·h/mL
CCCCC/C=C/C=C/C(=O)NCC(C)C	rat, sham-operated, plasma	oral, 50 mg/kg	354 ± 231 ng·h/mL
COC(=O)/C=C/C(=O)c1ccc(OC)cc1	Sprague-Dawley rat, both sexes, plasma	oral, 200 mg/kg	2120 ± 269 ng·h/mL
Oc1ccc2ccccc2c1/N=N/c1ccccc1	Sprague-Dawley rats both sexes, whole blood	oral, 50 mg/kg	1150 ng·h/mL
Cn1cc(C(N)=O)c(NC2C3CC4CC2CC(O)(C4)C3)c2ccnc1-2 (stereo not shown)	Japanese adults, moderate hepatic impairment, plasma	oral, 150 mg single dose, fasting, Child-Pugh B	1350 ng·h/mL
O=C(O)/C=C/c1cccc(S(=O)(=O)Nc2ccccc2)c1	patients with moderate liver dysfunction, plasma	intravenous, 400 mg/m^2 belinostat, single 30 min infusion, cycle 1 day -7, mean	10000 ng·h/mL
CC(C)(C)C(=O)Nc1ccc2[nH]c(CN3CCC(N(CCCN4CCOCC4)CC4OC(n5cnc6c(N)ncnc65)C(O)C4O)CC3)nc2c1 (stereo not shown)	Sprague-Dawley rat male, plasma	intravenous, 20 mg/kg	2820 ± 649 ng·h/mL
CN1CCN(c2ccc(Nc3ncc(Cl)c(Nc4ccccc4P(C)(C)=O)n3)cc2Br)CC1	Sprague-Dawley rat, male, plasma	oral, 25 mg/kg	4340 ng·h/mL and 3650 ng·h/mL
COc1cc2oc(-c3ccc(O)cc3)cc(=O)c2c(O)c1[C@@H]1O[C@H](CO)[C@@H](O)[C@H](O)[C@H]1O[C@@H]1O[C@H](CO)[C@@H](O)[C@H](O)[C@H]1O	male Sprague-Dawley rat, normal, plasma	oral, 6.8 g/kg	79.9 ± 37.8 ng·h/mL
Cc1ccccc1/N=N/c1ccc(/N=N/c2c(O)ccc3ccccc23)c(C)c1	Sprague-Dawley rats both sexes, whole blood	oral, 50 mg/kg	10000 ng·h/mL
NC(=O)c1cnc2[nH]ccc2c1NC1C2CC3CC1CC(OS(=O)(=O)O)(C3)C2 (stereo not shown)	Japanese adults, moderate hepatic impairment, plasma	oral, 150 mg single dose, fasting, Child-Pugh B	2490 ng·h/mL
N=C(N)NCCC[C@H](NC(=O)[C@@H]1CCCN1C(=O)[C@H](Cc1ccccc1)NC(=O)[C@@H]1CCCN1C(=O)[C@H](Cc1c[nH]cn1)NC(=O)[C@@H](N)Cc1ccccc1)C(=O)O	Sprague-Dawley rat male, plasma	intravenous, 10 mg/kg	22.5 ± 6.42 ng·h/mL
Cc1cc(/C=C/C#N)cc(C)c1Oc1nc(NC2CCN(Cc3ccc(P(C)(C)=O)cc3)CC2)nc2ccsc12	male Sprague-Dawley rats, plasma	oral, 10 mg/kg	1300 ± 322 ng·h/mL
CONC(=O)/C=C/c1cccc(S(=O)(=O)Nc2ccccc2)c1	patients with moderate liver dysfunction, plasma	intravenous, 400 mg/m^2 belinostat, single 30 min infusion, cycle 1 day -7, mean	13800 ng·h/mL

Excerpt of the above:
Structure (SMILES)	test system	setting	AUC(0-inf)
O=C(O)/C=C/c1cccc(S(=O)(=O)Nc2ccccc2)c1	patients with moderate liver dysfunction, plasma	intravenous, 400 mg/m^2 belinostat, single 30 min infusion, cycle 1 day -7, mean	10000 ng·h/mL
CC(C)(C)C(=O)Nc1ccc2[nH]c(CN3CCC(N(CCCN4CCOCC4)CC4OC(n5cnc6c(N)ncnc65)C(O)C4O)CC3)nc2c1 (stereo not shown)	Sprague-Dawley rat male, plasma	intravenous, 20 mg/kg	2820 ± 649 ng·h/mL
